Results pooled from the literature.
Each line is one published result; not all experiments were run side by side. Numbers after ± are the reported error. ≈ marks a conversion by molar mass, not a printed value.
Spike glycoprotein: Spike glycoprotein (Severe acute respiratory syndrome coronavirus 2, UniProt P0DTC2)
UniProt P41145, sequence (whole entry, looked up): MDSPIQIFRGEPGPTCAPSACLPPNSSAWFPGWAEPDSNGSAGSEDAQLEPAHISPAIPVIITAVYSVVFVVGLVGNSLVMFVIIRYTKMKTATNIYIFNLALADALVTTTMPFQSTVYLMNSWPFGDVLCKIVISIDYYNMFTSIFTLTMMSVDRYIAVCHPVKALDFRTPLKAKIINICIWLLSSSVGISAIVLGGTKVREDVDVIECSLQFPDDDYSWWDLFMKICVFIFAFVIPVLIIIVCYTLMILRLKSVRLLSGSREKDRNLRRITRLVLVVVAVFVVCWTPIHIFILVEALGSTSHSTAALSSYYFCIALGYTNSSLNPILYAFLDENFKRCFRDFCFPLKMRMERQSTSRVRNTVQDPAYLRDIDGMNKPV
UniProt P35372, sequence (whole entry, looked up): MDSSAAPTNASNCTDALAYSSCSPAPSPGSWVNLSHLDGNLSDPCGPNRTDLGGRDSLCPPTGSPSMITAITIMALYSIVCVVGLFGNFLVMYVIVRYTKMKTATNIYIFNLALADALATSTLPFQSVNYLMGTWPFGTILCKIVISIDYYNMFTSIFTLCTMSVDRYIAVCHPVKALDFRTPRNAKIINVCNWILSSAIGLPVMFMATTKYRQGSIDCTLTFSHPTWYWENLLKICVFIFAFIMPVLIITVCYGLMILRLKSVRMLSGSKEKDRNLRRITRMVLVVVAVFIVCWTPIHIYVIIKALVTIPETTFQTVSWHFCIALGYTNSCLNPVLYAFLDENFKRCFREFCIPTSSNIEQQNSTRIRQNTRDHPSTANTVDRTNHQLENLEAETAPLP

Structure (SMILES)	tested on	assay	system	setting	endpoint	value
CCCCCCCCCCCCCCCC(=O)N[C@@H](CCC(=O)NCCOCCOCCC(=O)NCCOCCOCCC(=O)NCCCC[C@H](NC(=O)[C@H](CC(=O)O)NC(=O)[C@H](CC(C)C)NC(=O)[C@H](Cc1ccc(O)cc1)NC(=O)[C@H](CCCCN)NC(=O)[C@H](CO)NC(=O)[C@H](Cc1ccc(O)cc1)NC(=O)[C@H](CC(=O)O)NC(=O)[C@H](CO)NC(=O)[C@@H](NC(=O)[C@H](Cc1ccccc1)NC(=O)[C@@H](NC(=O)CNC(=O)[C@H](CCC(N)=O)NC(=O)[C@@H](CO)NC(=O)[C@@H](N)Cc1c[nH]cn1)[C@@H](C)O)[C@@H](C)O)C(=O)N[C@@H](CCCNC(=N)N)C(=O)N[C@@H](CCCNC(=N)N)C(=O)N[C@@H](C)C(=O)N[C@@H](CCC(N)=O)C(=O)N[C@@H](CC(=O)O)C(=O)N[C@@H](Cc1ccccc1)C(=O)N[C@H](C(=O)N[C@@H](CCC(N)=O)C(=O)N[C@@H](Cc1c[nH]c2ccccc12)C(=O)N[C@@H](CC(C)C)C(=O)N[C@@H](CC(C)C)C(=O)N[C@@H](CC(N)=O)C(=O)N[C@H](C(=O)NCC(=O)NCC(=O)N1CCC[C@H]1C(=O)N[C@@H](CO)C(=O)N[C@@H](CO)C(=O)NCC(=O)N[C@@H](C)C(=O)N1CCC[C@H]1C(=O)N1CCC[C@H]1C(=O)N1CCC[C@H]1C(=O)N[C@@H](CO)C(N)=O)[C@@H](C)O)C(C)C)C(=O)O		refers to: CK	Sprague-Dawley rat, male	subcutaneous, 100 µg/kg once daily, 14 days	serum enzyme activity	492 ± 108 U/L
O=C(C=Cc1ccc(O)c(O)c1)OC1CC(O)(C(=O)O)CC(OC(=O)C=Cc2ccc(O)c(O)c2)C1O (stereo not drawn)	Spike glycoprotein	binding			Kd	18300 nM
CC(C)C[C@H](NC(=O)[C@H](Cc1c[nH]c2ccccc12)NC(=O)[C@H](CCCNC(=N)N)NC(=O)[C@H]1CCC[C@@H]1NC(=O)[C@H](CCC(=O)O)NC(=O)[C@H](CC(=O)O)NC(=O)[C@H](CC(=O)O)NC(=O)[C@@H](N)CC(N)=O)C(=O)N[C@H]1CCC[C@@H]1C(=O)N[C@H](C(=O)N[C@@H](CC(=O)O)C(=O)N[C@H]1CCC[C@@H]1C(=O)N[C@H](C(=O)N[C@@H](Cc1ccc(O)cc1)C(=O)N[C@@H](CCC(=O)O)C(=O)N[C@H]1CCC[C@@H]1C(=O)N[C@@H](Cc1c[nH]c2ccccc12)C(=O)N[C@@H](Cc1c[nH]cn1)C(N)=O)C(C)C)[C@@H](C)O	Spike glycoprotein, RBD (Severe acute respiratory syndrome coronavirus 2, UniProt P0DTC2)				Kd	11400 nM
CCCCCCCCCCCCCCCc1cccc(O)c1C(=O)O	Spike glycoprotein	binding, biolayer interferometry			Kd	8380 nM
CCSC[C@H](NC(=O)[C@H](CCCC(=O)NCCN(CC(=O)NCCN(CC(=O)NCCN(CC(=O)NCCN(CC(=O)N[C@@H](CCCNC(=N)N)C(N)=O)C(=O)Cn1cnc2c(=O)[nH]c(N)nc21)C(=O)Cn1ccc(N)nc1=O)C(=O)Cn1ccc(N)nc1=O)C(=O)Cn1cnc2c(=O)[nH]c(N)nc21)NC(=O)[C@H](CCC(=O)O)NC(=O)[C@H](Cc1ccc(O)cc1)NC(=O)[C@@H](NC(=O)[C@H](CCCCN)NC(=O)[C@H](CCC(N)=O)NC(=O)[C@H](CC1CCC1)NC(=O)[C@@H](NC(=O)[C@H](Cc1c[nH]c2ccccc12)NC(=O)[C@H](CCC(=O)O)NC(=O)[C@H](CCCCN)NC(=O)[C@H](CC(=O)O)NC(C)=O)[C@@H](C)CC)[C@@H](C)CC)C(=O)N[C@@H](CCCNC(=N)N)C(=O)N[C@@H](CC(C)C)C(=O)N[C@@H](CC(C)C)C(=O)N[C@@H](CC(=O)O)C(=O)N[C@@H](CCC(=O)O)C(=O)N[C@@H](CC(C)C)C(=O)NCC(=O)N[C@@H](Cc1c[nH]cn1)C(=O)N[C@@H](C)C(=O)N[C@@H](CCC(=O)O)C(=O)N[C@@H](C)C(=O)N[C@@H](CO)C(=O)N[C@@H](CCSC)C(=O)N[C@@H](CCCNC(=N)N)C(=O)N[C@@H](C)C(=O)N[C@@H](CO)C(=O)N[C@@H](CC(=O)O)C(=O)N[C@@H](CCCCNC(=O)CN(CCNC(=O)CN(CCNC(=O)CN(CCNC(=O)CN(CCNC(=O)CN(CCNC(=O)[C@H](CCCNC(=N)N)NC(C)=O)C(=O)Cn1cc(C)c(=O)[nH]c1=O)C(=O)Cn1ccc(N)nc1=O)C(=O)Cn1cnc2c(=O)[nH]c(N)nc21)C(=O)Cn1cnc2c(=O)[nH]c(N)nc21)C(=O)Cn1ccc(N)nc1=O)C(=O)N[C@H](C(=O)N[C@@H](Cc1ccc(O)cc1)C(=O)N[C@@H](CCC(=O)O)C(=O)N[C@@H](Cc1ccccc1)C(=O)N[C@@H](CCSC)C(=O)N[C@@H](CCCCN)C(=O)N[C@@H](CCCCN)C(N)=O)[C@@H](C)CC	Spike glycoprotein	binding, SPR			Kd	0.37 nM
C=C1C(=O)OC2C1CCC(=C)C1CC(OC3OC(CO)C(O)C(OC4OC(CO)C(O)C(O)C4O)C3O)C(=C)C12 (stereo not drawn)	Spike glycoprotein	binding			Kd	3560 nM
CCCC[C@H](NC(=O)[C@H](CO)NC(=O)[C@H](C)NC(=O)[C@H](CCC(=O)O)NC(=O)[C@H](C)NC(=O)[C@H](Cc1c[nH]cn1)NC(=O)CNC(=O)[C@H](CC(C)C)NC(=O)[C@H](CCC(=O)O)NC(=O)[C@H](CC(=O)O)NC(=O)[C@H](CC(C)C)NC(=O)[C@H](CC(C)C)NC(=O)[C@H](CCCNC(=N)N)NC(=O)[C@H](CCCC)NC(=O)[C@H](CCC(=O)O)NC(=O)[C@H](CCC(=O)O)NC(=O)[C@H](Cc1ccc(O)cc1)NC(=O)[C@@H](NC(=O)[C@H](CCCCN)NC(=O)[C@H](CCC(N)=O)NC(=O)[C@H](CC(C)C)NC(=O)[C@@H](NC(=O)[C@H](Cc1c[nH]c2ccccc12)NC(=O)[C@H](CCC(=O)O)NC(=O)[C@H](CCCCN)NC(=O)[C@@H](N)CC(=O)O)[C@@H](C)CC)[C@@H](C)CC)C(=O)N[C@@H](CCCNC(=N)N)C(=O)N[C@H](C(=O)N[C@@H](CO)C(=O)N[C@@H](CC(=O)O)C(=O)N[C@@H](CCC(=O)O)C(=O)N[C@H](C(=O)N[C@@H](Cc1ccc(O)cc1)C(=O)N[C@@H](CCC(=O)O)C(=O)N[C@@H](Cc1ccccc1)C(=O)N[C@@H](CCCC)C(=O)N[C@@H](CCCCN)C(=O)N[C@@H](CCCCN)C(N)=O)[C@@H](C)CC)C(C)C	Spike glycoprotein	binding, SPR			Kd	13 nM
CC(C)C[C@H](NC(=O)[C@H](CO)NC(=O)[C@H](CCCCN)NC(=O)[C@H](CC(C)C)NC(=O)C(C)(C)NC(=O)[C@H](CCCCN)NC(=O)[C@H](CCC(=O)O)NC(=O)[C@H](C)NC(=O)[C@H](CC(C)C)NC(=O)[C@H](CC(N)=O)NC(=O)[C@@H]1CCCN1C(=O)[C@H](CC(C)C)NC(=O)[C@H](Cc1ccccc1)NC(=O)CNC(=O)[C@H](NC(=O)[C@@H](N)Cc1ccc(O)cc1)[C@H](C)O)C(N)=O	Kappa-type opioid receptor (OPRK1, Homo sapiens, UniProt P41145)	ligand displacement, radioligand		pH 7.5, cell membranes	Ki	16 nM
Cc1cc(O)cc(C)c1C[C@H](N)C(=O)NCC(=O)NCC(=O)N[C@@H](Cc1ccccc1)C(=O)N[C@H](C(=O)NCC(=O)N[C@@H](C)C(=O)N[C@@H](CCCNC(=N)N)C(=O)N[C@@H](CCCCN)C(=O)N[C@@H](CO)C(=O)N[C@@H](C)C(=O)N[C@@H](CCCNC(=N)N)C(=O)N[C@@H](CCCCN)C(N)=O)[C@@H](C)O	Mu-type opioid receptor (OPRM1, Homo sapiens, UniProt P35372)	β-arrestin 2 recruitment, agonist, BRET	SH-SY5Y cells	15 min, room temperature	EC50	74.1 nM
CC[C@H](C)[C@H](NC(=O)[C@H](CCCCN)NC(=O)[C@H](CCCCN)NC(=O)[C@H](CC(C)C)NC(=O)[C@H](Cc1c[nH]c2ccccc12)NC(=O)CN)C(=O)NCC(=O)N[C@@H](CCCCN)C(=O)N[C@@H](CCCCN)C(=O)N[C@H](C(=O)N[C@@H](CCC(=O)O)C(=O)N[C@@H](CCCNC(=N)N)C(=O)N[C@H](C(=O)NCC(=O)N[C@@H](CCC(N)=O)C(=O)N[C@@H](Cc1c[nH]cn1)C(=O)N[C@H](C(=O)N[C@@H](CCCNC(=N)N)C(=O)N[C@@H](CC(=O)O)C(=O)N[C@@H](C)C(=O)N[C@H](C(=O)N[C@H](C(=O)N[C@@H](CCC(N)=O)C(=O)N[C@H](C(=O)N[C@H](C(=O)NCC(=O)N[C@H](C(=O)N[C@@H](C)C(=O)N[C@@H](CCC(N)=O)C(=O)N[C@@H](CCC(N)=O)C(=O)N[C@@H](C)C(=O)N[C@@H](C)C(=O)N[C@@H](CC(N)=O)C(=O)N[C@H](C(=O)N[C@@H](C)C(=O)N[C@@H](C)C(=O)N[C@H](C(=O)N[C@@H](CC(C)C)C(=O)N[C@@H](CCCCN)C(N)=O)[C@@H](C)O)C(C)C)C(C)C)[C@@H](C)CC)[C@@H](C)O)[C@@H](C)CC)[C@@H](C)O)[C@@H](C)O)C(C)C)[C@@H](C)CC	Klebsiella pneumoniae		isolate RKI 93/10, CAMHB		MIC	4 µg/mL (≈ 0.952 µM)
COc1cc(C2C3C4=[N+](CCc5cc(O)c(OC)cc54)C(c4c3ccc(OC)c4OC)C2C(=O)[O-])ccc1O (single isomer, unassigned; (+))	Spike glycoprotein	binding			Kd	22200 nM
CC(C)C[C@H](NC(=O)[C@H](CC(=O)O)NC(=O)[C@H](CCC(=O)O)NC(=O)[C@H](C)NC(=O)[C@H](CCC(=O)O)NC(=O)[C@H](Cc1c[nH]cn1)NC(=O)[C@H](CC(N)=O)NC(=O)[C@H](Cc1ccccc1)NC(=O)[C@H](CCCCN)NC(=O)[C@H](CC(=O)O)NC(=O)[C@@H](N)CC(C)C)C(=O)O	Spike glycoprotein	binding			Kd	35.2 nM

Repeated from above:
Structure (SMILES)	tested on	assay	system	setting	endpoint	value
CCCC[C@H](NC(=O)[C@H](CO)NC(=O)[C@H](C)NC(=O)[C@H](CCC(=O)O)NC(=O)[C@H](C)NC(=O)[C@H](Cc1c[nH]cn1)NC(=O)CNC(=O)[C@H](CC(C)C)NC(=O)[C@H](CCC(=O)O)NC(=O)[C@H](CC(=O)O)NC(=O)[C@H](CC(C)C)NC(=O)[C@H](CC(C)C)NC(=O)[C@H](CCCNC(=N)N)NC(=O)[C@H](CCCC)NC(=O)[C@H](CCC(=O)O)NC(=O)[C@H](CCC(=O)O)NC(=O)[C@H](Cc1ccc(O)cc1)NC(=O)[C@@H](NC(=O)[C@H](CCCCN)NC(=O)[C@H](CCC(N)=O)NC(=O)[C@H](CC(C)C)NC(=O)[C@@H](NC(=O)[C@H](Cc1c[nH]c2ccccc12)NC(=O)[C@H](CCC(=O)O)NC(=O)[C@H](CCCCN)NC(=O)[C@@H](N)CC(=O)O)[C@@H](C)CC)[C@@H](C)CC)C(=O)N[C@@H](CCCNC(=N)N)C(=O)N[C@H](C(=O)N[C@@H](CO)C(=O)N[C@@H](CC(=O)O)C(=O)N[C@@H](CCC(=O)O)C(=O)N[C@H](C(=O)N[C@@H](Cc1ccc(O)cc1)C(=O)N[C@@H](CCC(=O)O)C(=O)N[C@@H](Cc1ccccc1)C(=O)N[C@@H](CCCC)C(=O)N[C@@H](CCCCN)C(=O)N[C@@H](CCCCN)C(N)=O)[C@@H](C)CC)C(C)C	Spike glycoprotein	binding, SPR			Kd	13 nM
